{"data": "Assay results gathered from unrelated publications", "cell line": "LS174T", "note": "Compare with care: the assays were run in different laboratories."}
{"Compound": "[Cl-].c1csc([I+]c2cccs2)c1", "assay": "Western blot, measured: p27", "conditions": "concentration not given, 24 h", "endpoint": "protein level", "value": "increased"}
{"Compound": "Cc1c(C(=O)O)ccc2c3n(nc12)[C@@H]1[C@H](C3)N(CC2CC2)[C@@]2(C(=O)Nc3cc(Cl)ccc32)[C@H]1c1cccc(Cl)c1F", "assay": "cell growth, alamarBlue", "conditions": "unbound", "endpoint": "GI50", "value": "0.32 nM"}
{"Compound": "CCCN1CCN(c2cccc(-c3cnccc3N3CCCC4(CCNC4=O)C3)c2)CC1 (stereo not drawn)", "assay": "WNT reporter gene, inhibitor, TCF/LEF luciferase", "endpoint": "IC50", "value": "> 5000 nM"}
{"Compound": "CCn1cc(-c2cc(Cn3ccoc3=N)cc3c2CCN([C@@H](C)c2cc(OC)ccn2)C3=O)c(C(F)(F)F)n1", "assay": "cell growth, inhibitor", "conditions": "120 h", "endpoint": "EC50", "value": "67.8 nM"}
{"Compound": "CCCN1CCN(c2ccc(-c3cncc(Cl)c3N3CCC4(CCNC4=O)CC3)cc2)CC1", "assay": "WNT reporter gene, inhibitor, TCF/LEF luciferase", "endpoint": "IC50", "value": "20 nM"}
{"Compound": "CC[C@H](C)[C@@H]1NC(=O)[C@H](CCC(=O)O)NC(=O)[C@H](Cc2c[nH]c3ccccc23)NC(=O)[C@H](CCCCN)NC(=O)[C@H](CC(=O)O)NC(=O)[C@H](CCCCN)NC(=O)[C@@H](NC(=O)[C@@H](NC(=O)CNC(=O)[C@@H]2CCCN2C(=O)[C@H](CC(N)=O)NC(=O)CCCCCN)[C@@H](C)O)CSSC[C@@H](C(=O)N[C@@H](CC(C)C)C(=O)N[C@@H](CC(C)C)C(=O)N[C@@H](CC(N)=O)C(=O)NCC(=O)NCC(=O)O)NC1=O", "assay": "labelled peptide binding", "conditions": "concentration not given, 1 h", "how to read": "reference: unlabelled native peptide", "endpoint": "inhibition", "value": "73%"}
{"Compound": "COc1cnc2cccc(N3CCc4c(cc(Cn5ccnc5C)cc4-c4cn(C)nc4C(F)(F)F)C3=O)c2c1", "assay": "cell growth, inhibitor", "conditions": "120 h", "endpoint": "EC50", "value": "339 nM"}
{"Compound": "c1ccc([I+]c2ccccc2)cc1", "assay": "cell growth, trypan blue count", "conditions": "48 h", "endpoint": "IC50", "value": "~10000 nM"}
{"Compound": "COc1cccc2c1C(=O)c1c(O)c3c(c(O)c1C2=O)C[C@@](O)(C(=O)CO)C[C@@H]3O[C@H]1C[C@H](N)[C@H](O)[C@H](C)O1", "assay": "cytotoxicity, WST-1", "conditions": "72 h, highest tested concentration", "endpoint": "Emax", "value": "88.5%"}
{"note": "A few entries again:"}
{"Compound": "CCn1cc(-c2cc(Cn3ccoc3=N)cc3c2CCN([C@@H](C)c2cc(OC)ccn2)C3=O)c(C(F)(F)F)n1", "assay": "cell growth, inhibitor", "conditions": "120 h", "endpoint": "EC50", "value": "67.8 nM"}
